# Published values gathered from unrelated publications.
# “And” joins repeats or separate records; there may be more than shown. ± gives the spread as reported.
# ATM: Serine-protein kinase ATM (ATM, Homo sapiens, UniProt Q13315)
# CAPN1: Calpain-1 catalytic subunit (CAPN1, Homo sapiens, UniProt P07384)
# PTGS1: Prostaglandin G/H synthase 1 (PTGS1, Ovis aries, UniProt P05979)
# USP51: Ubiquitin carboxyl-terminal hydrolase 51 (USP51, Homo sapiens, UniProt Q70EK9)
# Adhesin FmlH lectin domain: Adhesin FmlH, lectin domain (Escherichia coli, UniProt Q1RBS0)
# Adra1b: Alpha-1B adrenergic receptor (Adra1b, Rattus norvegicus, UniProt P15823)
# MAL12: Alpha-glucosidase MAL12 (MAL12, Saccharomyces cerevisiae S288c, UniProt P53341)
SMILES,target,assay,test system,setting,inhibition
Cc1nc2c(F)cc(-c3nc(Nc4ccc(CNC(=O)CCCCCCC(=O)NO)cc4)ncc3F)cc2n1C(C)C,ATM,"enzyme activity, inhibitor",,1 µM,4%
Cc1ccc(CNC(=O)[C@H](CCc2ccccc2)NC(=O)[C@H](CC(=O)NCC(C)(C)C)NC(=O)CCc2cccc(F)c2)cc1,CAPN1,"enzyme activity, inhibitor",,100 µM,22%
Cc1ccc(-c2nn(-c3ccc(S(C)(=O)=O)cc3)cc2C=NN=c2[nH]c(-c3ccc([N+](=O)[O-])cc3)cs2)cc1,PTGS1,enzyme activity,,0.1 µM,11.6%
CCCCn1c(SCc2nc(-c3ccc(CC)cc3)no2)nc2cc3c(cc2c1=O)OCO3,USP51,"enzyme activity, inhibitor",,1 µM,38.6 ± 8.8%
C=CCNC(=O)[C@H](CCc1ccccc1)NC(=O)[C@H](CC(=O)NCC(C)(C)C)NC(=O)CCc1ccccc1,CAPN1,"enzyme activity, inhibitor",,100 µM,32%
OC[C@H]1O[C@@H](Oc2ccccc2Cl)[C@H](O)[C@@H](O)[C@H]1O,Adhesin FmlH lectin domain,"binding to desialylated mucin, ELISA competition",UPEC UTI89,"10 µM, together with: desialylated bovine submaxillary mucin",20.7 ± 5.5%
COc1cc(-c2cnn3c(C)c(C(=O)N4CCC(Cc5ccccc5)CC4)cnc23)cc(OC)c1OC,USP51,"enzyme activity, inhibitor",,1 µM,13.9 ± 1.1%
Nc1ccccc1C(=O)NCCCN1CCN(Cc2ccccc2)CC1,"DRD2 (Homo sapiens, UniProt P14416)","enzyme activity, inhibitor",,10 µM,15.3%
C=CC(=O)N1Cc2nc(-c3cc(-c4cc(Cl)cnc4Cl)c(F)cc3F)n(-c3ccncn3)c2C1,"PEAK1 (Homo sapiens, UniProt Q9H792)","cell-free assay, inhibitor",,1 µM,7%
O=C1c2sc(-c3ccc(N4CCC(CO)CC4)nc3F)nc2CCN1c1cccnc1,"PTGFR (Homo sapiens, UniProt P43088)","ligand displacement, radioligand",,1 µM,-1%
Cc1ccc(-c2nn(-c3ccc(S(C)(=O)=O)cc3)cc2C=NN=c2[nH]c(-c3ccc(Br)cc3)cs2)cc1 (mixture of isomers),PTGS1,enzyme activity,,10 µM,57.7%
COCC(=O)N1CCc2cc(-c3csc(NC(=O)c4cc(OC)cc(OC)c4)n3)ccc21,Adra1b,cell-free assay,,10 µM,13%
CN(Cc1ccc(/C=C/C(=O)NO)cc1)CC12CC3CC(CC(C3)C1)C2,human D4.4 receptor,antagonist radioligand binding,,0.05 µM,-4%
NC(=O)c1cccc(-c2cnn3ccc(Nc4ccc(N5CCOCC5)cc4)nc23)c1,"crk3, with CYC6 (Leishmania mexicana, UniProt O15851)",IMAP fluorescence polarisation,,"30 µM, with L. major CYC6",93%
Cc1c(C)c2ccc(O[C@@H]3O[C@H](CO)[C@H](O)[C@H](O)[C@H]3O)cc2oc1=O,Adhesin FmlH lectin domain,"binding to desialylated mucin, ELISA competition",UPEC UTI89,100 µM,89.2 ± 0.4%
COc1ccc(C(=O)/C=C/c2ccccc2-c2c[nH]c3ccc(C#N)cc23)c(O)c1,ATM,"enzyme activity, inhibitor",,20 µM,14%
C[Si]1(C[C@H](CN)CC(=O)O)CCCC1,"High affinity choline transporter 1 (Rattus norvegicus, UniProt Q9JMD7)","ligand displacement, radioligand",,70 µM,-17%
Cc1ccc(NC(=O)c2cn(CC(O)c3ccc4c(c3)OCO4)nn2)cc1 (centres unmarked),USP51,"enzyme activity, inhibitor",,1 µM,38.9 ± 6.1%
O=C1c2sc(-c3ccc(N4CCC(F)C4)nc3F)nc2CCN1c1cccnc1 (centres unmarked),"TAR DNA-binding protein 43, aggregated (TARDBP, Homo sapiens, UniProt Q13148)",radioligand binding,"homogenate, FTLD-TDP, type A","250 nM, together with: [3H]ACI-19626",66.2% and 69%
Cn1c(=O)c2c(nc(Oc3ccc(Oc4ncc(Cl)cc4Cl)cc3)n2Cc2cccc(Cl)c2)n(C)c1=O,USP51,"enzyme activity, inhibitor",,1 µM,1.9 ± 0.6%
N#Cc1ccccc1O[C@@H]1O[C@H](CO)[C@H](O)[C@H](O)[C@H]1O,Adhesin FmlH lectin domain,"binding to desialylated mucin, ELISA competition",UPEC UTI89,100 µM,94.5 ± 0.3%
Cc1[nH]nc2c1N=C(c1ccccc1Cl)c1cnc(N3CCOCC3)cc1N2,Adra1b,cell-free assay,,10 µM,3%
O=C(CCO)c1ccc(O)cc1,MAL12,inhibitor,,"100 µg/mL, 0.4167 h, together with: p-nitrophenyl glucoside substrate",47.6 ± 5.4%
Cn1cc(C(=O)N[C@@H](CCNC(=O)c2ccc([N+](=O)[O-])o2)c2nc3ccccc3[nH]2)nn1,"STING1 (Homo sapiens, UniProt Q86WV6, H232R)","reporter gene, inhibitor, Lucia reporter",THP1-Dual,"concentration not given, wild-type STING, together with: diABZI",inactive
CS(=O)(=O)c1ccc(-n2cc(C=NN=c3[nH]c(-c4ccc([N+](=O)[O-])cc4)cs3)c(-c3ccc([N+](=O)[O-])cc3)n2)cc1,PTGS1,enzyme activity,,0.1 µM,8.62%
CN(C)C/C=C/C(=O)Nc1ccc2nc(NCCCCCN(C)C)nc(NCCCCCCN(C)C)c2c1,"SETD2 (Homo sapiens, UniProt Q9BYW2)","enzyme activity, inhibitor, radiometric",,50 µM,97%
C[C@@H](O)[C@H](NC(=O)c1ccc(OCc2ccccc2)cc1)C(=O)N[C@@H](CCc1ccccc1)C(=O)NCc1ccccc1Cl,CAPN1,"enzyme activity, inhibitor",,100 µM,55%
CS(=O)(=O)c1ccc(-n2cc(C=NN=c3[nH]c(-c4ccc([N+](=O)[O-])cc4)cs3)c(-c3ccc(Br)cc3)n2)cc1,PTGS1,enzyme activity,,100 µM,87.7%
COc1ncc2nc(C)n(Cc3ncc(S(N)(=O)=O)cc3F)c2c1-c1ccccc1,"Potassium voltage-gated channel subfamily KQT member 1, with KCNE1 (KCNQ1, Homo sapiens, UniProt P51787)","antagonist, cell-based",,10 µM,11.5%
Cc1ccc(-c2nn(-c3ccc(S(C)(=O)=O)cc3)cc2/C=N/N=C2/NC(=O)CS2)cc1,"EGFR (Homo sapiens, UniProt P00533, L858R)","kinase activity, inhibitor",,100 µM,94.7%
"CC(=O)C12NC(C)(C)CC1(C)C(=O)C1=C2c2c(c3c4n2C(C)(C)CC2=C4C4(CC(C)(C)NC(C)(C4)C2=O)CC3(C)C)C(=O)C(C)(C)N1 (single isomer, unassigned; (-))","P2X purinoceptor 7 (P2RX7, Homo sapiens, UniProt Q99572)","ion current, patch clamp",P2X7,10 µM,34.8%
COc1ccccc1O[C@@H]1O[C@H](CO)[C@H](O)[C@H](O)[C@H]1O,Adhesin FmlH lectin domain,"binding to desialylated mucin, ELISA competition",UPEC UTI89,"10 µM, together with: desialylated bovine submaxillary mucin",55.7 ± 1.6%
CS(=O)(=O)c1ccc(-n2cc(C=NN=c3[nH]c(-c4ccc(Br)cc4)cs3)c(-c3ccc(Br)cc3)n2)cc1,PTGS1,enzyme activity,,1 µM,56.1%
Oc1cc2c(cc1O)C(c1ccco1)NCC2 (centres unmarked),MAL12,"enzyme activity, inhibitor",,"100 µM, DMSO solvent, together with: pNPG substrate",58.4 ± 1.72%
CCOC(=O)c1cc(S(=O)(=O)Nc2cc(OC)c(OC)c(OC)c2)n[nH]1,USP51,"enzyme activity, inhibitor",,1 µM,23.3 ± 8.8%
C/C=C/C(=O)Nc1ccc2nc(NCCCCCN(C)C)nc(NCCCCCCN(C)C)c2c1,"KMT2C (Homo sapiens, UniProt Q8NEZ4)","enzyme activity, inhibitor, radiometric",,10 µM,12%
C[Si](C)(C)C[C@H](CN)CC(=O)O,"HRH3 (Homo sapiens, UniProt Q9Y5N1)","ligand displacement, radioligand",,250 µM,-1%
O=C(O)c1cccc(-c2ccccc2O[C@H]2O[C@H](CO)[C@H](O)[C@H](O)[C@H]2O)c1,Adhesin FmlH lectin domain,"binding to desialylated mucin, ELISA competition",UPEC UTI89,100 µM,26.2 ± 5.9%
C[C@H](NC(=O)[C@H](CC(=O)NCC(C)(C)C)NC(=O)C(=O)c1c[nH]c2ccccc12)C(=O)NCc1ccc(F)cc1F,CAPN1,"enzyme activity, inhibitor",,100 µM,-40%
Cn1ccc2cc(-n3c(=O)[nH]c4sc5c(c4c3=O)CCCC5)ccc21,"PTGER4 (Homo sapiens, UniProt P35408)",cell-free assay,,10 µM,17%
N#Cc1ccc(O[C@@H]2O[C@H](CO)[C@H](O)[C@H](O)[C@H]2O)cc1,Adhesin FmlH lectin domain,"binding to desialylated bovine submaxillary mucin, inhibitor, ELISA competition",UPEC UTI89,1 µM,9.5 ± 3.7%
CCc1cc(-c2csc(S(=O)(=O)Nc3cc(OC)c(OC)c(OC)c3)c2)on1,USP51,"enzyme activity, inhibitor",,1 µM,8.3 ± 2.2%
OC[C@H]1O[C@H](Oc2cccc3ccccc23)[C@H](O)[C@@H](O)[C@H]1O,Adhesin FmlH lectin domain,"binding to desialylated mucin, ELISA competition",UPEC UTI89,100 µM,28.1 ± 3.4%
Brc1ccccc1-c1nnc(CSc2nnnn2-c2ccccc2)o1,"ADRA2B (Homo sapiens, UniProt P18089)","ligand displacement, radioligand",,10 µM,2%
COc1cc(-c2cn(C)c(=O)c3cnccc23)cc(OC)c1CN(C)C,"Bromodomain-containing protein 3, BD2 (BRD3, Homo sapiens, UniProt Q15059)",,,1 µM,-2.07%
Cc1cc(C)n(Cc2ccc(O)cc2)n1,MAL12,inhibitor,,25 µM,< 0%
C/C1=C\CC/C(C)=C/CC(C)(C)/C=C/C1,"Trpv1 (Rattus norvegicus, UniProt O35433)","ion current, inhibitor, outside-out patch clamp",,"10 µM, together with: pH 5.5 activation",42 ± 2%
O=C(CN1CCO[C@@H](COc2cccc(Cl)c2)C1)N1CCc2ccccc21,"HTR5A (Homo sapiens, UniProt P47898)",radioligand binding,,"concentration not given, together with: [3H]LSD",28.9%
COc1ccc(C2NCCc3cc(O)c(O)cc32)cc1 (centres unmarked),MAL12,"enzyme activity, inhibitor",,"100 µM, DMSO solvent, together with: pNPG substrate",42.2 ± 2.56%
Nc1ccc(S(=O)(=O)N(Cc2cccc(Br)c2)CC2CCC(C(=O)NO)CC2)cc1 (centres unmarked),USP51,"enzyme activity, inhibitor",,1 µM,3.8 ± 0.9%
Cc1ccccc1O[C@@H]1O[C@H](CO)[C@H](O)[C@H](O)[C@H]1O,Adhesin FmlH lectin domain,"binding to desialylated mucin, ELISA competition",UPEC UTI89,"10 µM, together with: desialylated bovine submaxillary mucin",28.2 ± 1.8%
CCOc1ccc(C(=O)Nc2nnc(C3CC(=O)N(c4ccc(SC)cc4)C3)o2)cc1OCC (centres unmarked),USP51,"enzyme activity, inhibitor",,1 µM,0%
C=CC(=O)Nc1cc(-c2nn(C3CCN(CCNC(=O)[C@H](C)CCC45CC6CC(CC(C6)C4)C5)CC3)c3ncnc(N)c23)ccc1Oc1ccccc1,"MAST4 (Homo sapiens, UniProt O15021)","inhibitor, KiNativ profiling",biochemical,2 µM,-7.4%

# Excerpt of the above:
SMILES,target,assay,test system,setting,inhibition
O=C1c2sc(-c3ccc(N4CCC(F)C4)nc3F)nc2CCN1c1cccnc1 (centres unmarked),"TAR DNA-binding protein 43, aggregated (TARDBP, Homo sapiens, UniProt Q13148)",radioligand binding,"homogenate, FTLD-TDP, type A","250 nM, together with: [3H]ACI-19626",66.2% and 69%
Cn1c(=O)c2c(nc(Oc3ccc(Oc4ncc(Cl)cc4Cl)cc3)n2Cc2cccc(Cl)c2)n(C)c1=O,USP51,"enzyme activity, inhibitor",,1 µM,1.9 ± 0.6%
N#Cc1ccccc1O[C@@H]1O[C@H](CO)[C@H](O)[C@H](O)[C@H]1O,Adhesin FmlH lectin domain,"binding to desialylated mucin, ELISA competition",UPEC UTI89,100 µM,94.5 ± 0.3%
Cc1[nH]nc2c1N=C(c1ccccc1Cl)c1cnc(N3CCOCC3)cc1N2,Adra1b,cell-free assay,,10 µM,3%
O=C(CCO)c1ccc(O)cc1,MAL12,inhibitor,,"100 µg/mL, 0.4167 h, together with: p-nitrophenyl glucoside substrate",47.6 ± 5.4%
